Results from different studies.
Parts stem from different laboratories: compare values within a part only.
Sequence of UniProt P10721 (whole entry, unmodified, looked up): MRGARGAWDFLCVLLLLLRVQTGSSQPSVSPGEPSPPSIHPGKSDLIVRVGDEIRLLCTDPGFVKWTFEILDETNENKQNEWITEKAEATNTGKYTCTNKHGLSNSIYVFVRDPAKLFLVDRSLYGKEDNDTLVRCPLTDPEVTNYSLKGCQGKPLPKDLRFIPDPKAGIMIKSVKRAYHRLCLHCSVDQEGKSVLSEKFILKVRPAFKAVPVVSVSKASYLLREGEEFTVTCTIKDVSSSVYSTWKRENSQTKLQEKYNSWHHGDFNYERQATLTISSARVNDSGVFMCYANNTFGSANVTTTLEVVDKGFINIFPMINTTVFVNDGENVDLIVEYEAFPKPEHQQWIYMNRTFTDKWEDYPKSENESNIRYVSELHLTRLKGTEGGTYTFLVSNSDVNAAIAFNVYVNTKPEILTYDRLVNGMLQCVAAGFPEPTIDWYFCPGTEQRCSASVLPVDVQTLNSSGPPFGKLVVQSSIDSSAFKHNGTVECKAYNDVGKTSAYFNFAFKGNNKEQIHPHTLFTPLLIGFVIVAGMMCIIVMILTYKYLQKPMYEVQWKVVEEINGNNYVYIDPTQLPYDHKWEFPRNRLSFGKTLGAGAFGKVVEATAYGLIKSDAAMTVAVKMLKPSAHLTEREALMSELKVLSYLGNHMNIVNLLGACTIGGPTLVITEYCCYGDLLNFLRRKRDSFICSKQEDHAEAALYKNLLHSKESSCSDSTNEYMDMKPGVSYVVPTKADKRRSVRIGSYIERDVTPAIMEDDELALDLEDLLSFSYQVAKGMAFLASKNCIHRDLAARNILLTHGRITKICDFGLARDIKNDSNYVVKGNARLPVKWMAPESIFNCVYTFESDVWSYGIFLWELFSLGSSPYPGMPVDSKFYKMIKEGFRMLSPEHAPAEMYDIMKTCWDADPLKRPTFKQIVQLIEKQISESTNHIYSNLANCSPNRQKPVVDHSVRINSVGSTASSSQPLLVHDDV
Sequence of UniProt Q16832 (whole entry, looked up): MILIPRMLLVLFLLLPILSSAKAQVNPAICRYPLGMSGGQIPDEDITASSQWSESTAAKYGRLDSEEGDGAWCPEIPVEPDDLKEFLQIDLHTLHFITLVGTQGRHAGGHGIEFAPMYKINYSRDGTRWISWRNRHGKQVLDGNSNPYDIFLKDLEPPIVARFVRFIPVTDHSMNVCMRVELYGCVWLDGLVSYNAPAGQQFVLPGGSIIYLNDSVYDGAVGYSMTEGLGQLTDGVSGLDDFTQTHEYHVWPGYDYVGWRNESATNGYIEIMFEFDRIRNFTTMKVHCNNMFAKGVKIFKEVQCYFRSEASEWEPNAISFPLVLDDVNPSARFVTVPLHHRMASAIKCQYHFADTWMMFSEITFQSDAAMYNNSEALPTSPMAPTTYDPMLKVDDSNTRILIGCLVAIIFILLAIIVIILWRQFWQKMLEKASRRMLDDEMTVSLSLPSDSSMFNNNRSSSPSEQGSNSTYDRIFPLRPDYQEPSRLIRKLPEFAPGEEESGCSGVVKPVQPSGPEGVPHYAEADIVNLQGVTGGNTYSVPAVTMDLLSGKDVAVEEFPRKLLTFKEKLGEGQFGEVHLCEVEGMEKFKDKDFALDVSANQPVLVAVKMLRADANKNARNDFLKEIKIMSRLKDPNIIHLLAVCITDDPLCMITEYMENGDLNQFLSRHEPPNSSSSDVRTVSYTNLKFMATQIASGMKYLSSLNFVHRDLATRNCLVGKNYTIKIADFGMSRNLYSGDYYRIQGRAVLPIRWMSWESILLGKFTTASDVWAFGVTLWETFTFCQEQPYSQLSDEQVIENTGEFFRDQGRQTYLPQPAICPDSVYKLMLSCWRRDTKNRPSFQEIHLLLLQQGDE
Sequence of UniProt P46734 (whole entry, looked up): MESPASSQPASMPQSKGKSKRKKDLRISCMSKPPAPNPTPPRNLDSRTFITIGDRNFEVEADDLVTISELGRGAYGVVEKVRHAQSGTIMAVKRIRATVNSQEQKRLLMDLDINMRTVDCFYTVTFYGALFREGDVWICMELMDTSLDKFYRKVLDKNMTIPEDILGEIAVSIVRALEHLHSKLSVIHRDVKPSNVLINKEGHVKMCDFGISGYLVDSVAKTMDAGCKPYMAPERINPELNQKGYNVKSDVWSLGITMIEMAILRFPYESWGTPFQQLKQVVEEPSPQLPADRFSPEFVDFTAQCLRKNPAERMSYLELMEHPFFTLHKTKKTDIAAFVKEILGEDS
Sequence of UniProt O43683 (whole entry, looked up): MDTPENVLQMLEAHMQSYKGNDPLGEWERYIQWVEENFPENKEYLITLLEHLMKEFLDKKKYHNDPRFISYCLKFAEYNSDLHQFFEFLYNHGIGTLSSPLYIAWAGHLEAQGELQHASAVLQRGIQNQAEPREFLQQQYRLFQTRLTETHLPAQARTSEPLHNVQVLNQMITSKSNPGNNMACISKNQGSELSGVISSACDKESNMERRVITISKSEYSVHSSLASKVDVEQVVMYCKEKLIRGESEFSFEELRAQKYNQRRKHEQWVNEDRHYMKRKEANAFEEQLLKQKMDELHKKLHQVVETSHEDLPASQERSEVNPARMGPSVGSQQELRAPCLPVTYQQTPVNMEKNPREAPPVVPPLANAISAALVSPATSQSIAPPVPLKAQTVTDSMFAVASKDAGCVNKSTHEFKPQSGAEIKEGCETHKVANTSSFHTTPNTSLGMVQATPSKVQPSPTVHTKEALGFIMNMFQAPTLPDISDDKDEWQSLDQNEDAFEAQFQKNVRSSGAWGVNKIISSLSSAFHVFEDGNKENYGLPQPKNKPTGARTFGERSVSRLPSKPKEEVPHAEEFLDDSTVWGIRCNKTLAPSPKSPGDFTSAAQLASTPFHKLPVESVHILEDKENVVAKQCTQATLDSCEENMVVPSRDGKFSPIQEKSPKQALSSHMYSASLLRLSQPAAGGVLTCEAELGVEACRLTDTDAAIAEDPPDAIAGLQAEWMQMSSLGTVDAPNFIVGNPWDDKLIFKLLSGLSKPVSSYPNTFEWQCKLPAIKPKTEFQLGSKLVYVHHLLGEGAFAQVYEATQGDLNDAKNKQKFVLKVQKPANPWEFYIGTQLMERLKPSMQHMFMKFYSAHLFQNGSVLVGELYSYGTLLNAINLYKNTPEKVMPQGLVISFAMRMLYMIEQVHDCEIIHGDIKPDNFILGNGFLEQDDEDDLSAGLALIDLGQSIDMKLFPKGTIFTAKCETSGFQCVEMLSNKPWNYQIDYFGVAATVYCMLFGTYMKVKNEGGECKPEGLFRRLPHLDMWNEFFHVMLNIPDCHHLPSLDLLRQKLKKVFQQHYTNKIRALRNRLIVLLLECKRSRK
Sequence of UniProt Q9Y616 (whole entry, looked up): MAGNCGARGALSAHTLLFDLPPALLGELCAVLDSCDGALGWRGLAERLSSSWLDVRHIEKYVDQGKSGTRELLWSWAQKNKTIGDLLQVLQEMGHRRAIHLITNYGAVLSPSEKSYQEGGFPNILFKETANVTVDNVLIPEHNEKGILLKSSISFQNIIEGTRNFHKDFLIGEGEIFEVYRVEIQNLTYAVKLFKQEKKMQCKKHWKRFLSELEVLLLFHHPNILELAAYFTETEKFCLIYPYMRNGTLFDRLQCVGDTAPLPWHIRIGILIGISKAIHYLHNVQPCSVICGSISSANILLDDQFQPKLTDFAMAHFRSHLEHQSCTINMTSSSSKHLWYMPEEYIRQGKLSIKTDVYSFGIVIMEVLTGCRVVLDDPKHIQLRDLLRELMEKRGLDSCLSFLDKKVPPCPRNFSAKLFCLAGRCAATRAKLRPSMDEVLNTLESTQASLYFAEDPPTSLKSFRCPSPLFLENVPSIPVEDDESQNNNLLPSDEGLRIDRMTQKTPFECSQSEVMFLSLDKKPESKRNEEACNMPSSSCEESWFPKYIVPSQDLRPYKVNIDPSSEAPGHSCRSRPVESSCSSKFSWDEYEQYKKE

Study 1 — observed: enzyme activity; action: inhibitor; concentration: 10 µM; quantity: inhibition
Target: Calcium/calmodulin-dependent protein kinase type II subunit alpha (CAMK2A, Homo sapiens, UniProt Q9UQM7)
Sequence of UniProt Q9UQM7 (whole entry, looked up): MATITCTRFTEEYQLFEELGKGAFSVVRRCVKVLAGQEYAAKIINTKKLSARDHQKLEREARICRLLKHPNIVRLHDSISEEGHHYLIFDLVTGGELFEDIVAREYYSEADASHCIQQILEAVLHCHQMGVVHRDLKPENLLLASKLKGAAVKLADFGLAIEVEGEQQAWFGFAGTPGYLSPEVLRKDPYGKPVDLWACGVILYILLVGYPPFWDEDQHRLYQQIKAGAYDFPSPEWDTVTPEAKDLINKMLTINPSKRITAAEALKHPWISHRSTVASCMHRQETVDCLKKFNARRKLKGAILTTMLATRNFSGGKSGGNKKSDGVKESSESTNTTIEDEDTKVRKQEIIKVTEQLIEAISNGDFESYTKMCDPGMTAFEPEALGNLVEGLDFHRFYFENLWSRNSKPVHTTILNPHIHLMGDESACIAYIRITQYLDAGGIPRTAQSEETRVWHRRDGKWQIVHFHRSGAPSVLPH
O=C(O)C[C@@H](O)C(=O)O: -25%
N=C(N)NC(=O)Cc1c(Cl)cccc1Cl: -9%
O=C1CC2(CCCC2)CC(=O)N1CCCCN1CCN(c2ncccn2)CC1: -4%
COc1ccc(/C=C/C(=O)c2ccc(OC)cc2)cc1: 35%
C[C@@H]1O[C@@H](OC[C@H]2O[C@@H](Oc3cc(O)c4c(=O)cc(-c5ccc(O)cc5)oc4c3)[C@H](O)[C@@H](O)[C@@H]2O)[C@H](O)[C@H](O)[C@H]1O: -4%
NC(=O)NCCC[C@H](N)C(=O)O: 10%
O=C(/C=C/c1ccc(O)c2oc(-c3ccc(O)c(O)c3)cc12)O[C@H](Cc1ccc(O)c(O)c1)C(=O)O: 90%
COc1cc2c(cc1OC)-c1cc3ccc(OC)c(OC)c3c[n+]1CC2: -15%
COc1c2c(cc3oc(CO)cc(=O)c13)O[C@H](C(C)(C)O)C2: -4%
CCN1CC(CCN2CCOCC2)C(c2ccccc2)(c2ccccc2)C1=O (centres unmarked): -1%
CC(C)(C)NC[C@H](O)COc1ccccc1C1CCCC1: 6%
O=C1O[C@H]([C@@H](O)CO)C(=O)C1=O: 0%
C=C1C[C@H]2[C@@H]3CCC4=CC(=O)CC[C@@H]4[C@H]3CC[C@]2(C)[C@@]1(OC(C)=O)C(C)=O: -3%
CC(C)CN(C[C@@H](O)[C@H](Cc1ccccc1)NC(=O)O[C@H]1CCOC1)S(=O)(=O)c1ccc(N)cc1: -7%
CC(=O)OCC1=CO[C@@H](OC(=O)CC(C)C)[C@H]2C1=C[C@H](OC(=O)CC(C)(C)OC(C)=O)[C@]21CO1: -37%
NC(=O)NC(CC(=O)O)C(=O)O (racemic): 1%
O=C(O)CC(C(=O)O)C(O)C(=O)O (racemic): -5%
COc1ccc(-c2cc(=O)c3c(OC)cc(OC)cc3o2)cc1: -3%

Study 2 — method: competition with immobilised ligand; concentration: 1 µM; quantity: remaining binding
Compound: Cc1nc(N2CC[C@@H](O)C2)ncc1-c1cc(C(F)(F)F)cc2[nH]ncc12
CDK5 (Homo sapiens, UniProt Q00535); binding: 99%
KIT (Homo sapiens, UniProt P10721); cell-free assay: 67%
KIT (Homo sapiens, UniProt P10721, A829P); cell-free assay: 60%
MAPKAPK2 (Homo sapiens, UniProt P49137); binding: 95%
PTK6 (Homo sapiens, UniProt Q13882); binding: 89%
BUB1 (Homo sapiens, UniProt O43683); binding: 75%
CDK9 (Homo sapiens, UniProt P50750); binding: 87%
STK26 (Homo sapiens, UniProt Q9P289); binding: 59%
NTRK2 (Homo sapiens, UniProt Q16620); cell-free assay: 53%
FGFR4 (Homo sapiens, UniProt P22455); cell-free assay: 90%
PIKFYVE (Homo sapiens, UniProt Q9Y2I7); cell-free assay: 88%
MAP4K4 (Homo sapiens, UniProt O95819); binding: 82%
DYRK1A (Homo sapiens, UniProt Q13627); cell-free assay: 73%
Ribosomal protein S6 kinase alpha-6, C-terminal kinase domain (RPS6KA6, Homo sapiens, UniProt Q9UK32); binding: 100%
MAP2K3 (Homo sapiens, UniProt P46734); binding: 90%
MAPK11 (Homo sapiens, UniProt Q15759); binding: 100%
TAOK1 (Homo sapiens, UniProt Q7L7X3); binding: 91%
EPHA5 (Homo sapiens, UniProt P54756); cell-free assay: 100%
TTK (Homo sapiens, UniProt P33981); binding: 100%
Ribosomal protein S6 kinase alpha-2, C-terminal kinase domain (RPS6KA2, Homo sapiens, UniProt Q15349); binding: 100%
PIK3C2B (Homo sapiens, UniProt O00750); cell-free assay: 100%
PIP5K1C (Homo sapiens, UniProt O60331); binding: 100%
MAP3K6 (Homo sapiens, UniProt O95382); binding: 68%
DDR1 (Homo sapiens, UniProt Q08345); cell-free assay: 100%
FGFR2 (Homo sapiens, UniProt P21802); cell-free assay: 100%

Study 3 — observed: enzyme activity; action: inhibitor; concentration: 0.5 µM; relative to: control; quantity: remaining activity
Target: Serine/threonine-protein kinase Nek11 (NEK11, Homo sapiens, UniProt Q8NG66)
Sequence of UniProt Q8NG66 (whole entry, looked up): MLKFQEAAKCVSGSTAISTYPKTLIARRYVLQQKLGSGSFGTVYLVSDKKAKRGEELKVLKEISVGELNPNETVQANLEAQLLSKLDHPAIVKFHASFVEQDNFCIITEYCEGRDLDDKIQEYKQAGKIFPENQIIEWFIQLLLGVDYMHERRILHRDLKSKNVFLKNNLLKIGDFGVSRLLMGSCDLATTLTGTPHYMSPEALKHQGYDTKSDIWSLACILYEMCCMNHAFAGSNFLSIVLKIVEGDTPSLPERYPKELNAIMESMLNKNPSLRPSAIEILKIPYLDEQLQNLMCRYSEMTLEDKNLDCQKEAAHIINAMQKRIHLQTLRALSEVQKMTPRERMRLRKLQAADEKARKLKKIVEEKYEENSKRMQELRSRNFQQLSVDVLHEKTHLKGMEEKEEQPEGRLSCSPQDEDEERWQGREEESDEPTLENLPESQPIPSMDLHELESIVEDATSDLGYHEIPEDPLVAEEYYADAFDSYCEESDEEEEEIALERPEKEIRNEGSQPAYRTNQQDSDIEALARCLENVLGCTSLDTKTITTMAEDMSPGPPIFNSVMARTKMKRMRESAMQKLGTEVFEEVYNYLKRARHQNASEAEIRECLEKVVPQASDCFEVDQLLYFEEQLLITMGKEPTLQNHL
O=C1NC(=O)/C(=C/c2ccc3c(c2)OC(F)(F)O3)S1: 111%
COc1cc2c(N3CCN(C(=O)Nc4ccc(OC(C)C)cc4)CC3)ncnc2cc1OCCCN1CCCCC1: 92.5%
O=C1c2ccccc2-c2nc3nnnn3nc21: 88%
CC(C)n1cnc2c(Nc3cccc(Cl)c3)nc(NCCO)nc21: 109%
C[C@@H](N)[C@H]1CC[C@H](C(=O)Nc2ccncc2)CC1: 120%
N#C/C(=C(/N)SC1C=CC=CC1)c1cccc(C(O)c2ccncc2)c1 (centres unmarked): 103%
O=C(O)/C=C/c1cc(Br)c(Br)c(Br)c1Br: 101%
CC(C)(C)c1nc2c3cc[nH]c(=O)c3c3cc(F)ccc3c2[nH]1: 92.4%
FC(F)(F)c1ccc(/C=C/c2nc(COc3ccc(CCCCn4ccnn4)cc3)co2)cc1: 97.6%
O=C(c1ccccc1)c1ccc(N2CCOCC2)cc1O: 97.7%
O=Nc1c(-c2c(O)[nH]c3ccccc23)[nH]c2ccccc12: 98.2%
c1cc(-c2cnn3cc(-c4ccc(OCCN5CCCCC5)cc4)cnc23)ccn1: 96.7%
CNc1cc2c(Nc3cccc(Br)c3)ncnc2cn1: 106%
CCCCc1c(-c2ccc(O)cc2)[nH]c2nccnc12: 92.5%
NC(=O)c1cccc(-c2cc(Nc3ccc(OC(F)(F)F)cc3)ncn2)c1: 98.3%
CC(C)N(CCC(=O)c1ccc2ccccc2c1)Cc1ccccc1: 105%
COc1cc2c(Nc3ccc(Br)cc3F)ncnc2cc1OCC1CCN(C)CC1: 103%
NC(=O)c1ccc(-c2nc(-c3ccc4c(c3)OCCO4)c(-c3ccccn3)[nH]2)cc1: 108%
Nc1nc(Nc2ccc(S(N)(=O)=O)cc2)nn1C(=S)Nc1c(F)cccc1F: 101%
O=c1c(-c2ccc(F)cc2)c(-c2ccncc2)[nH]n1-c1ccc(Cl)cc1: 104%
CCN(CC)CCCCN1c2ccccc2Oc2ccc(Cl)cc21: 92%

Study 4 — observed: enzyme activity; action: inhibitor; concentration: 1 µM; quantity: inhibition
Structure (SMILES): CO[C@@H]1[C@H](N(C)C(=O)c2ccccc2)C[C@H]2O[C@]1(C)n1c3ccccc3c3c4c(c5c6ccccc6n2c5c31)C(=O)NC4
CLK4 (Homo sapiens, UniProt Q9HAZ1): 68%
DDR2 (Homo sapiens, UniProt Q16832): 3%
IRAK3 (Homo sapiens, UniProt Q9Y616): 98%
PKMYT1 (Homo sapiens, UniProt Q99640): 14%
EPHA6 (Homo sapiens, UniProt Q9UF33): 0%
BRSK2 (Homo sapiens, UniProt Q8IWQ3): 84%
LYN (Homo sapiens, UniProt P07948): 41%
ITK (Homo sapiens, UniProt Q08881): 0%
GRK2 (Homo sapiens, UniProt P25098): 23%
STK35 (Homo sapiens, UniProt Q8TDR2): 0%
NEK9 (Homo sapiens, UniProt Q8TD19): 20%
PKN1 (Homo sapiens, UniProt Q16512): 95%
NEK6 (Homo sapiens, UniProt Q9HC98): 0%

For quick reference, copied from above (study 3):
O=C(c1ccccc1)c1ccc(N2CCOCC2)cc1O: 97.7%
O=Nc1c(-c2c(O)[nH]c3ccccc23)[nH]c2ccccc12: 98.2%
c1cc(-c2cnn3cc(-c4ccc(OCCN5CCCCC5)cc4)cnc23)ccn1: 96.7%
CNc1cc2c(Nc3cccc(Br)c3)ncnc2cn1: 106%
CCCCc1c(-c2ccc(O)cc2)[nH]c2nccnc12: 92.5%
NC(=O)c1cccc(-c2cc(Nc3ccc(OC(F)(F)F)cc3)ncn2)c1: 98.3%
CC(C)N(CCC(=O)c1ccc2ccccc2c1)Cc1ccccc1: 105%
COc1cc2c(Nc3ccc(Br)cc3F)ncnc2cc1OCC1CCN(C)CC1: 103%
NC(=O)c1ccc(-c2nc(-c3ccc4c(c3)OCCO4)c(-c3ccccn3)[nH]2)cc1: 108%
Nc1nc(Nc2ccc(S(N)(=O)=O)cc2)nn1C(=S)Nc1c(F)cccc1F: 101%
O=c1c(-c2ccc(F)cc2)c(-c2ccncc2)[nH]n1-c1ccc(Cl)cc1: 104%
CCN(CC)CCCCN1c2ccccc2Oc2ccc(Cl)cc21: 92%
